Measurements gathered from unrelated publications.
Protocols differ between the studies behind these lines. ± gives the spread as reported.

The IC50 of `C[C@H]1C(OCCCCCCCCCCCC[P+](c2ccccc2)(c2ccccc2)c2ccccc2)O[C@@H]2O[C@@]3(C)CCC4[C@H](C)CCC1[C@]42OO3` (some centres unmarked) is reported as 0.0821 µM (J82; cell growth or viability, MTT; 72 h).
With `[CH3][Ti+2][O]C(=O)c1ccc([S][Au][PH](c2ccccc2)(c2ccccc2)c2ccccc2)cc1.c1cc[cH-]c1.c1cc[cH-]c1` the IC50 was 0.49 µM (HEK-293T; cell growth or viability, XTT; 72 h).
`[Cl][Ag].[Se]=c1n(C2CCCCC2)ccn1C1CCCCC1` has an IC50 of 4.7 µM (LoVo; cell growth or viability, MTT; 72 h).
`COCC12CCC(OC)C34C5CC6(O)C(O)C5C(O)(C(O)C6OC)C(C(OC)C13)C4N(C)C2` (centres unmarked) gave an IC50 of 13.7 µM (NCI-H460; cell growth or viability, MTT).
`C=CC12COC(=O)C(=C)C1C(O)C1C(=C)C(=O)OC1C2` (centres unmarked) has an IC50 of 2.2 µM (JIMT-1; cell growth or viability, MTT; 72 h).
`C[C@H]1[C@H](OC(=O)CCC(=O)OCCc2ccc(OC(=O)CCC(=O)O[C@@H]3O[C@@H]4O[C@@]5(C)CC[C@H]6[C@H](C)CC[C@@H]([C@H]3C)[C@@]46OO5)cc2)O[C@@H]2O[C@@]3(C)CC[C@H]4[C@H](C)CC[C@@H]1[C@@]24OO3` has an IC50 of 6.1 µM (C3PV; cell growth or viability, MTT; 24 h).
`NCCCC[C@@H](NC(=O)[C@H](Cc1c[nH]cn1)NC(=O)[C@H](CO)NC(=O)[C@H](Cc1c[nH]c2ccccc12)NC(=O)[C@H](Cc1c[nH]cn1)NC(=O)[C@@H]1CCC(=O)N1)C(=O)N[C@@H](Cc1c[nH]c2ccccc12)C(=O)N[C@@H](Cc1ccc(O)cc1)C(=O)N1CCC[C@H]1C(=O)NCC(N)=O` has an IC50 of 0.0011 ± 0.0008 µM (WPE-1-NB26-3; cell growth, inhibitor, sulforhodamine B staining; four days).
The IC50 of `Cc1cc(C)c(-n2c[n+](-c3c(C)cc(C)cc3C)c3c2-c2cccc4cccc-3c24)c(C)c1.[Cl][Pd-]([Cl])[CH2]C=Cc1ccccc1` is reported as 31.5 µM (NTERA2; cell growth or viability; 72 h, 3D culture).
`C[C@H]1C(OCCCCCCCCC[P+](c2ccccc2)(c2ccccc2)c2ccccc2)O[C@@H]2O[C@@]3(C)CCC4[C@H](C)CCC1[C@]42OO3` (some centres unmarked) has an IC50 of 0.258 ± 0.0237 µM (HUVEC; cell viability, MTT; 72 h).
For `COCC12CN(C)C3C4C(OC)C1C3(C(OC)CC2O)C1CC2(O)C(O)C1C4(O)C(O)C2OC` (centres unmarked), the IC50 was 7.97 µM (NCI-H460; cell growth or viability, MTT).
For `CC(C)[C@@H]1NC(=O)[C@H](C)OC(=O)[C@@H](C(C)C)NC(=O)[C@@H](C(C)C)OC(=O)[C@H](C(C)C)NC(=O)[C@H](C)OC(=O)[C@@H](C(C)C)NC(=O)[C@@H](C(C)C)OC(=O)[C@H](C(C)C)NC(=O)[C@H](C)OC(=O)[C@@H](C(C)C)NC(=O)[C@H](C)OC1=O`, the IC50 was 3.5 µM (human Astrocyte; cell growth or viability).
With `CNC(=O)c1cc(Oc2ccc(NC(=O)c3cc(-c4cccc(COC(=O)CCC(=O)OC5OC6OC7(C)CCC8C(C)CCC(C5C)C68OO7)c4)ccn3)cc2)ccn1` (centres unmarked) the IC50 was 64.5 µM (L02; cell growth or viability, MTT; 72 h).
With `COc1ccnc(-c2cc(OC)ccn2)c1.[C-]#[O+].[C-]#[O+].[C-]#[O+].[Re+]` the IC50 was 9 ± 5 µM (H460; cell viability).
The IC50 of `Cc1cc(C)c(N2CCN(c3c(C)cc(C)cc3C)C2=[Se])c(C)c1.[Cl][Au]` is reported as 2.3 ± 0.7 µM (human ovarian cancer cells; cell viability, MTT; 72 h).
For `CNC(=O)c1cc(Oc2ccc(NC(=O)c3cc(-c4ccccc4OC(=O)CCC(=O)OC4OC5OC6(C)CCC7C(C)CCC(C4C)C57OO6)ccn3)cc2)ccn1` (centres unmarked), the IC50 was 42.7 µM (L02; cell growth or viability, MTT; 72 h).
`COCC12CN(C)C3C4C(OC)C1C3(C(OC)CC2O)C1CC2(O)C(OC)C(O)C4(OC(C)=O)C1C2OC(=O)c1ccccc1` (centres unmarked) has an IC50 of 26.3 µM (HBE; cell growth or viability, MTT).
For `C[C@H](NC(=O)[C@H](CCCNC(=N)N)NC(=O)[C@H](CCCNC(=N)N)NC(=O)[C@@H]1CCCN1C(=O)CNC(=O)[C@H](CCCNC(=N)N)NC(=O)[C@H](CCCNC(=N)N)NC(=O)CN)C(=O)N[C@@H](CC(N)=O)C(=O)N[C@@H](CCC(N)=O)C(=O)N[C@@H](CC(N)=O)C(=O)NCC(=O)N[C@H](C(=O)N[C@@H](CCCNC(=N)N)C(=O)N[C@@H](CCCNC(=N)N)C(=O)N[C@@H](CCCNC(=N)N)C(=O)N[C@@H](CCCNC(=N)N)C(=O)N[C@@H](CCCNC(=N)N)C(=O)N[C@@H](CCCNC(=N)N)C(=O)N[C@H](C(N)=O)[C@@H](C)O)[C@@H](C)O`, the IC50 was over 100 µM (BT-474; cell viability, CellTiter-Blue; 24 h, serum-free medium).
The IC50 of `Cc1cc(C)n(C(C(=O)OC(C)C)n2nc(C)cc2C)n1.F[P-](F)(F)(F)(F)F.[Cu+].c1ccc(P(c2ccccc2)c2ccccc2)cc1` is reported as 6.5 µM (LoVo; cell growth or viability, MTT; 72 h).
`O=C(Cc1ccc2ccccc2c1)N[C@H](Cc1ccc(O)cc1)C(=O)N[C@H](Cc1ccccc1)C(=O)N[C@H](Cc1ccccc1)C(=O)N[C@H](Cc1ccc(OP(=O)(O)O)cc1)C(=O)O` has an IC50 of 301 µg/mL (T98G; cell growth or viability, MTT).
For `COc1cc(/C=C(\C#N)C(=O)Nc2nnc(C(F)(F)F)s2)ccc1OC(=O)N1CCN(C(=O)CCCC(=O)NCCCC[C@@H]2NC(=O)[C@@H](Cc3ccc(O)cc3)NC(=O)[C@H](CC(=O)O)NC(=O)CNC(=O)[C@H](CCCNC(=N)N)NC2=O)CC1`, the IC50 was over 100 µM (MRC5; cell growth or viability, MTT).
For `CC(=O)N[C@@H](Cc1c[nH]cn1)C(=O)N[C@@H](CCCNC(=N)N)C(=O)N[C@@H](CCCNC(=N)N)C(=O)N[C@@H](CCCNC(=N)N)C(=O)N[C@@H](CCCNC(=N)N)C(=O)N[C@@H](CCCNC(=N)N)C(=O)N[C@@H](CCCNC(=N)N)C(=O)N[C@@H](CCCNC(=N)N)C(=O)N[C@@H](CCCNC(=N)N)C(=O)N[C@@H](Cc1c[nH]cn1)C(N)=O`, the IC50 was 6.2 ± 0.19 µM (H22; CCK-8; 24 h).
`OC[C@H]1[C@@H](O)[C@@H](O)CN1Cc1ccc(I)cc1` gave an IC50 of 87 ± 11 µM (CEM-DNR daunorubicin resistant; MTS; 72 h).
The IC50 of `C[C@H]1[C@H](OC(=O)CCC(=O)Oc2ccc(C(N)=S)cc2)O[C@@H]2O[C@@]3(C)CC[C@H]4[C@H](C)CC[C@@H]1[C@@]24OO3` is reported as 2.24 µM (L02; cell growth or viability, CCK-8; 72 h).
With `O=C(Nc1nc2c(ncn2C2OC(COP(=O)(O)O)C(O)C2O)c(=O)[nH]1)c1ccccc1` (centres unmarked) the IC50 was over 100 µM (Vero; cell growth or viability).
`CN(C)C(=O)[C@@H](NC(=O)c1cnccc1-c1ccc(C(F)(F)F)cc1)c1cc(C(F)(F)F)cc(C(F)(F)F)c1` gave an IC50 of 0.2 ± 0.2 µM (KHYG-1 with Ba/F3-MICA cells; NKG2D-mediated cell killing, inhibitor; 6 h).
With `CCN1CC2(COC)CCC(O)C34C5CC6C(OC)CC(O)(C5C6OC(C)=O)C(C(OC)C23)C14` (centres unmarked) the IC50 was 29.6 µM (HBE; cell growth or viability, MTT).
`O=C(/C=C/c1ccccc1)c1cc2ccccc2oc1=O` has an IC50 of 119 µg/mL (Vero; cell viability; 48 h).
`CN1C(=O)[C@H](Cc2ccccc2)N(C)C(=O)[C@@H]2[C@H]1CCN2Cc1cc(Cl)cc(Cl)c1` has an IC50 of about 40 µM (KHYG-1 with Ba/F3-MICA cells; NKG2D-mediated cell killing, inhibitor; 6 h).
For `C1CCN(C2CCNCC2)CC1.CCCC(CCC)C(=O)[O][Pt]([OH])([Cl])[Cl].CCCCN`, the IC50 was 8.64 ± 0.95 µM (A498; cell growth; 72 h).
With `CC(C)c1cccc(C(C)C)c1-n1c[n+](-c2c(C(C)C)cccc2C(C)C)c2c1-c1cccc3cccc-2c13.[Cl][Pd-]([Cl])[CH2]C=Cc1ccccc1` the IC50 was 31 ± 8 µM (2008 spheroids; cell viability, APH; 3D spheroids; 72 h).
`CCN1CC2(COC)C(O)CC(OC)C34C5CC6(O)C(OC)C(O)C(O)(C5C6OC(=O)c5ccccc5)C(C(OC)C23)C14` (centres unmarked) has an IC50 of 18.9 µM (NCI-H460; cell growth or viability, MTT).
The IC50 of `C[C@H]1C(OCCCCC[P+](c2ccccc2)(c2ccccc2)c2ccccc2)O[C@@H]2O[C@@]3(C)CCC4[C@H](C)CCC1[C@]42OO3` (some centres unmarked) is reported as 0.179 µM (J82; cell growth or viability, MTT; 72 h).
`CCOC12C(O)C(OC)C3(O)CC(C1C3OC(=O)c1ccccc1)C13C(OC)CC(O)C4(COC)CN(CC)C1C2C(OC)C43` (centres unmarked) gave an IC50 of 18.3 µM (NCI-H460; cell growth or viability, MTT).
With `CCCCN1CCNC1=[S+][Ag-3]([O][N+](=O)[O-])([P+](c1ccccc1)(c1ccccc1)c1ccccc1)[P+](c1ccccc1)(c1ccccc1)c1ccccc1` the IC50 was 9.21 µM (MG-63; MTT; 24 h).
With `Cc1cc(C)c(-n2ccn(-c3c(C)cc(C)cc3C)c2=[Se])c(C)c1.[Cl][Ag]` the IC50 was 2.7 µM (LoVo; cell growth or viability, MTT; 72 h).
`O=C(C[P+]([Au-][Cl])(c1ccccc1)c1ccccc1)[O][Ti+2][O]C(=O)C[P+]([Au-][Cl])(c1ccccc1)c1ccccc1.c1cc[cH-]c1.c1cc[cH-]c1` gave an IC50 of 3.2 µM (A498; cell viability, XTT; 72 h).
`CCC(C)C1OC(=O)C(NC(=O)c2cccc(NC=O)c2O)C(C)OC(=O)C(C(C)CC)OC(=O)C(C)(C)C(O)C(Cc2ccccc2)OC1=O` (centres unmarked) gave an IC50 of 1.04 ± 0.0178 µM (HCT-8/T taxol-resistant; cell viability, CCK-8; 72 h).
With `O=C1CC2(C1)C(=O)[O][Pt]1([Cl])([O]C(=O)C(Cl)Cl)([NH][C@@H]3CCCC[C@H]3[NH]1)[O]C2=O` the IC50 was 1.94 µM (NCI-H460; cell growth or viability, MTT).
`F[P-](F)(F)(F)(F)F.OCP(CO)CO.OCP(CO)CO.OCP(CO)CO.OCP(CO)CO.[Cu+]` has an IC50 of 1.37 µM (LoVo; cell growth or viability, MTT; 48 h).
For `CCN1CC2(COC)CCC(OC)C34C5CC6(O)C(OC)C(O)C(O)(C5C6OC(=O)c5ccccc5)C(C(OC)C23)C14` (centres unmarked), the IC50 was 24.1 µM (NCI-H460; cell growth or viability, MTT).
`CC1=CC(C)=[N+]2C1=Cc1ccc(CCC(=O)NCC3C[NH][Pt]([Cl])([Cl])[NH]3)n1[B-]2(F)F` (centres unmarked) gave an IC50 of 35.7 ± 1.5 µM (KB-3-1; cell viability, CellTiter-Glo; 72 h, DMF solvent).
For `CN(C)C(=O)[C@@H](NC(=O)c1ccccc1-c1ccc(C(F)(F)F)cc1)c1cccc(C(F)(F)F)c1`, the IC50 was 1.6 ± 0.4 µM (KHYG-1 with Ba/F3-MICA cells; NKG2D-mediated cell killing, inhibitor; 6 h).
The IC50 of `CCN1CC2(COC)CCC(OC)C34C5CC6C(OC)CC(O)(C(CC23)C14)C5C6OC(C)=O` (centres unmarked) is reported as 22.2 µM (NCI-H460; cell growth or viability, MTT).
`C[C@H]1C(OCCCCCCC[P+](c2ccccc2)(c2ccccc2)c2ccccc2)O[C@@H]2O[C@@]3(C)CCC4[C@H](C)CCC1[C@]42OO3` (some centres unmarked) has an IC50 of 0.115 µM (J82; cell growth or viability, MTT; 72 h).

Excerpt of the above:
With `CCCCN1CCNC1=[S+][Ag-3]([O][N+](=O)[O-])([P+](c1ccccc1)(c1ccccc1)c1ccccc1)[P+](c1ccccc1)(c1ccccc1)c1ccccc1` the IC50 was 9.21 µM (MG-63; MTT; 24 h).
With `O=C1CC2(C1)C(=O)[O][Pt]1([Cl])([O]C(=O)C(Cl)Cl)([NH][C@@H]3CCCC[C@H]3[NH]1)[O]C2=O` the IC50 was 1.94 µM (NCI-H460; cell growth or viability, MTT).
For `CCN1CC2(COC)CCC(OC)C34C5CC6(O)C(OC)C(O)C(O)(C5C6OC(=O)c5ccccc5)C(C(OC)C23)C14` (centres unmarked), the IC50 was 24.1 µM (NCI-H460; cell growth or viability, MTT).
For `CC(=O)N[C@@H](Cc1c[nH]cn1)C(=O)N[C@@H](CCCNC(=N)N)C(=O)N[C@@H](CCCNC(=N)N)C(=O)N[C@@H](CCCNC(=N)N)C(=O)N[C@@H](CCCNC(=N)N)C(=O)N[C@@H](CCCNC(=N)N)C(=O)N[C@@H](CCCNC(=N)N)C(=O)N[C@@H](CCCNC(=N)N)C(=O)N[C@@H](CCCNC(=N)N)C(=O)N[C@@H](Cc1c[nH]cn1)C(N)=O`, the IC50 was 6.2 ± 0.19 µM (H22; CCK-8; 24 h).
